Published values of several laboratories.
Lines come from different studies, so protocols differ. “And” joins repeats or separate records; there may be more than shown. ± marks the error that the study gave. ≈ marks a conversion by molar mass, not a printed value.

Compound	assay	system	setting	scale	measurement	result
O=C1CCc2ccc(OCCCCN3CCN(c4cccc(Cl)c4Cl)CC3)cc2N1	refers to: Sedation	genotyped patients, CYP2D6 poor metabolizers	dose not given, long-acting oral or depot		adverse event incidence	5.3%
CCc1c(-c2ccccc2)c(-c2ccccc2)nn1-c1ccccc1-c1cccc(OCC(=O)O)c1		Sprague-Dawley rat	oral, dose not given		AUC(all)	5820 ng·h/mL and 4940 ng·h/mL
Cc1cc(-c2nccc3c2ccn3CC(=O)Nc2ccc(-c3cnccn3)cn2)ccn1		human	5 mg once daily, multiple ascending dose		medical device site dermatitis	37.5%
N#CCNC(=O)c1ccc(-c2ccnc(Nc3ccc(N4CCOCC4)cc3)n2)cc1		healthy volunteers, plasma	oral, dose not given, with: rifampin single-dose	relative to: compound alone	AUCinf increase	57%
C[C@@H](NC(=O)N1C(=O)[C@H](Cc2ccnc(N)c2)[C@H]1C(=O)O)C1CCCCC1	UPLC-MS/MS	healthy adult Chinese volunteers, plasma	continuous intravenous infusion, 1.5 mg/kg/h, day 6 of 5-day infusion, mean		Vd	0.677 L/kg
COc1ccc(CNc2nc(-c3ccc(C(=O)O)cc3)nc3c2c2ccccc2n3C)cc1Cl		NSG mice	dose not given, day 3 of treatment		body weight	21 g and 22 g and 23.9 g and 23.1 g
COc1cc2c(cc1OC)C(=O)C(CC1CCN(Cc3ccccc3)CC1)C2 (stereo not shown)	Bond-Lader VAS	human subjects	dose not given	relative to: placebo	nausea VAS	-0.02 log(mm)
C=C(F)C(=O)N1CCN(c2nc(OC[C@@H]3CCCN3C)nc3c2CCN(c2cccc4cccc(Cl)c24)C3)C[C@@H]1CC#N		cancer patients, plasma	600 mg		AUC(0-12h)	4310 ng·h/mL
Cn1cc(Nc2nccc(-c3ccc4c(c3)CN(C3COC3)CC[C@H]4NC(=O)c3cn(C(C)(C)C)nn3)n2)cn1		human, whole blood	300 mg twice daily, day 14	relative to: pre-dose baseline	NKT cell count change	0.06%
COc1cc([C@H]2Oc3ccc([C@H]4Oc5cc(O)cc(O)c5C(=O)[C@@H]4O)cc3O[C@@H]2CO)ccc1O		FVB wild-type mice, plasma	oral gavage, 500 mg/kg silymarin, geometric mean		AUC(0-4h)	0.16 µM·h
Cc1nc2cccc(OCC(C)(C)C(=O)NC(C)C)c2c(N)c1C(=O)O		Swiss albino CD-1 mouse	oral, 2000 mg/kg, 48 h		mean body weight change	0.8 ± 0.6 g
CCCc1ccc(-c2ccc(-c3cc(F)c(F)c(F)c3)c(F)c2)cc1		rat, placenta	5000 ng/mL in perfusate, high dose, mixture of 21 LCMs		median placental accumulation	195 ng/g
O=C1NCCc2nc(OCc3cccc(F)c3)ccc21	refers to: Salivation	Sprague-Dawley rat male	oral, 100 mg/kg, 30 min	direction not given	Irwin test score	0
Cc1cc(NC2CCN(C(=O)OC3CCN(C(=O)/C=C/CN(C)C)C3)CC2)n2ncc(C(C)C)c2n1 (stereo not shown)	Phase I dose escalation CTCAE v4.0, refers to: platelet count decreased	patients with advanced solid tumours	dose not given, QD dosing any grade		patients with adverse event	21%
C[C@@H]1CN(Cc2ncccn2)C[C@H]1c1nc2c(cnn2C2CCOCC2)c(=O)[nH]1		mouse, plasma	intravenous, 0.3 mg/kg		mean residence time	0.6 h
N#Cc1ccc2c(c1)[C@H]1CCCN(C(=O)c3ccc4[nH]cnc4c3)[C@H]1C2		human	360 mg, end of trial	relative to: baseline	ACTH level change	0.3 pmol/L
N#Cc1cc(NC(=O)C(=O)O)c(Cl)c(NC(=O)C(=O)O)c1		excised Bama miniature pig skin	24 h		skin retention	1.67 ± 0.152 µmol/cm²
CCN1CCN(Cc2ccc(NC(=O)c3ccc(C)c(NC(=O)c4cncc(-c5cccs5)c4)c3)cc2C(F)(F)F)CC1		C57BL/6 mice, plasma	intraperitoneal, 10 mg/kg		extrapolated AUC share	7.21%
c1ccc(C2CCN(c3nc(-c4ccn[nH]4)nc4ccccc34)C2)nc1 (stereo not shown)		Japanese Pharmacopoeia disintegration test solution 2	pH 6.8		kinetic solubility	71 µg/mL (≈ 207 µM)
O=C(Nc1ccc(OC(F)(F)Cl)cc1)c1cnc(N2CC[C@@H](O)C2)c(-c2ccn[nH]2)c1	per treatment cycle, refers to: hemoglobin decrease	human patients	oral, dose not given, 28 day cycle		grade ≥3 event rate	0.1%
CC(C)(C(=O)N1CCOc2c(C#N)cncc2C1)C(F)F	refers to: infections and infestations	human	oral, 20 mg twice daily, 14 days, multiple ascending dose		subjects with adverse event	0%
CNC(=O)c1ccc(-c2cnc3ncc(Cc4ccc5ncccc5c4)n3n2)cc1F	CTCAE v4.0, any causality	human cancer patients	oral, 600 mg twice daily, expansion cohort at RP2D		creatinine increase incidence (all grades)	8%
Cc1c(Cl)cccc1Nc1ccccc1C(=O)O	shake-flask	Cremophor ELP	37 °C, water up to 0.5% w/w		thermodynamic solubility	50.3 ± 1.42 mg/g

Compound	assay	system	setting	scale	measurement	result
CN1C(=O)[C@@H](NC(=O)c2nnc(Cc3ccccc3)[nH]2)COc2cccnc21	phase I single ascending dose	human, male and female	oral, 200 mg, fasted		medical device site reaction incidence	0%
CCN1/C(=C/C(C)=O)Sc2ccc(F)cc21		cynomolgus monkey	oral, 10 mg/kg, 2 h post-dose		QRS duration	36 ± 2 ms
CNCc1ccc(-c2[nH]c3cc(F)cc4c3c2CCNC4=O)cc1		human patients	oral, 240 mg twice daily, all grades		nausea incidence	0%
CCCC1CCC(c2ccc(OCC)c(F)c2F)CC1 (stereo not shown)		rat, placenta	10 ng/mL in perfusate, low dose, mixture of 21 LCMs		median placental accumulation	2.31 ng/g
COc1ccc2c(c1)CN(C(=O)CCN1CCC(Cc3ccccc3)CC1)CC[S@@+]2[O-]	telemetry	conscious male beagle dogs	intravenous, 4 mg/kg, 2 h		QTc interval	250 ± 14 ms
C[C@@H](N)C1CCN(S(=O)(=O)c2cccc3cnccc23)CC1	refers to: Bradycardia	healthy volunteers	150 mg, fasted		TEAE incidence	0%
Cc1ccc([C@@H]2O[C@H](CO)[C@@H](O)[C@H](O)[C@H]2O)cc1Cc1ccc(-c2ccc(F)cc2)s1	refers to: inorganic phosphorus	Japanese type 2 diabetes patients	200 mg, day 18, 24 h urine collection	relative to: baseline	urinary phosphate excretion change	57.9 mg
O=C(CCCCCCC(=O)Nc1ccc(CC[18F])cc1)NO		athymic nu/nu male mice, LNCaP xenograft, liver	intravenous, 1 h		tissue uptake	4.9 ± 0.6 %ID/g
CC(C)c1nc(N(C)S(C)(=O)=O)nc(-c2ccc(F)cc2)c1/C=C/[C@@H](O)C[C@@H](O)CC(=O)O	refers to: phlebitis	healthy men	oral, dose not given, 8 days, treatment-emergent, crossover trial		subjects with adverse event	0%
CC(C)[C@@H](CN1CC[C@@](C)(c2cccc(O)c2)[C@@H](C)C1)NC(=O)[C@H]1Cc2ccc(O)cc2CN1		rat, brain	intraperitoneal, 3 mg/kg		AUClast	6980 ng·h/g
C[C@@H](Nc1cc(F)cc(F)c1)c1cc(C(=O)N(C)C)cc2c(=O)cc(N3CCOCC3)oc12		human, plasma	oral, 60 mg, day 1 single dose		Cmax geometric mean	338 ng/mL
COc1cccc(OC)c1-c1cc(C(=O)NC2(C(=O)O)C3CC4CC(C3)CC2C4)nn1-c1ccc(C(=O)N(C)CCCN(C)CCCN(C)C(=O)CN2CCN(CC(=O)[O-])CCN(CC(=O)[O-])CCN(CC(=O)[O-])CC2)cc1C(C)C.[177Lu+3] (stereo not shown)		mouse, HT-29 xenograft	72 h post injection, biodistribution	relative to: tumour over liver uptake	tumour-to-liver ratio	17.6
CSc1cc(C)nc(SC)c1NC(=O)CN1CCN(CCSc2nc3ccccc3[nH]2)CC1		mouse Crl:CD1 (ICR), female, plasma	intranasal, 50 µL of 3.24 mg/mL solution, daily for 7 days, 120 min, 0.01 N HCl solution vehicle		concentration	5.8 ng/mL
Cc1nonc1OCCNc1cc(N2CCOCC2)ccc1[N+](=O)[O-]		aqueous buffer	pH 7.4		thermodynamic solubility	< 4.29 µM
c1ccc(CCNc2nc(-c3ccccn3)nc3ccccc23)nc1		Japanese Pharmacopoeia disintegration test solution 2	pH 6.8		kinetic solubility	80 µg/mL (≈ 244 µM)
CC(=O)O[C@H]1C(=O)[C@@]2(C)[C@H]([C@H](OC(=O)c3ccccc3)[C@]3(O)C[C@H](OC(=O)[C@H](O)[C@@H](NC(=O)c4ccccc4)c4ccccc4)C(C)=C1C3(C)C)[C@]1(OC(C)=O)CO[C@@H]1C[C@@H]2O		human patients	intravenous, dose not given, cycle 2 day 1, range	relative to: cycle 1 day 8	clearance change	-69 to 39%
O=C(O)c1cccc(C(=O)O)c1		betaine/ethylene glycol DES-water	DES mass fraction 0.70		apparent dissolution enthalpy	3.63 kcal/mol
CC[C@H]1CC[C@H](c2ccc(-c3ccc(F)c(F)c3)cc2)CC1		rat, fetus	5000 ng/mL in perfusate, high dose, mixture of 21 LCMs		median fetal accumulation	1.06 ng/g
COc1cc(OC)c(NC(=O)CSc2nnc(-c3ccncc3)n2-c2ccccc2)cc1Cl		aqueous buffer	pH 7.4		thermodynamic solubility	< 5.36 µM
Cl.[2H]C([2H])([2H])CC(=O)c1cnc(NC(=O)C2CC2)cc1Nc1cccc(-c2ncn(C([2H])([2H])[2H])n2)c1OC	geometric mean	human	oral, 5 mg single dose, fasted, liquid		AUC(0-inf)	336 ng·h/mL
O=C(Nc1cnccc1Cl)N1CCN(Cc2ccc3c(c2)OC(F)(F)O3)CC1	multiple ascending dose	young men	75 mg, treatment-emergent adverse events		back pain incidence	0%
CC(C)c1nc(N(C)S(C)(=O)=O)nc(-c2ccc(F)cc2)c1/C=C/[C@@H](O)C[C@@H](O)CC(=O)O		human	oral, 10 mg, compound alone		participants with TEAE muscle spasms	0%
Cc1cc(C(=O)NC(C)(C)COc2cccc3c2C(N)=NS(=O)(=O)N3)cc(C)n1		Sprague-Dawley rat, plasma	oral, 100 mg/kg, vehicle 1% methylcellulose	relative to: female over male	Cmax ratio	0.51

Excerpt of the above:
Compound	assay	system	setting	scale	measurement	result
CN1C(=O)[C@@H](NC(=O)c2nnc(Cc3ccccc3)[nH]2)COc2cccnc21	phase I single ascending dose	human, male and female	oral, 200 mg, fasted		medical device site reaction incidence	0%
CCN1/C(=C/C(C)=O)Sc2ccc(F)cc21		cynomolgus monkey	oral, 10 mg/kg, 2 h post-dose		QRS duration	36 ± 2 ms
CNCc1ccc(-c2[nH]c3cc(F)cc4c3c2CCNC4=O)cc1		human patients	oral, 240 mg twice daily, all grades		nausea incidence	0%
CCCC1CCC(c2ccc(OCC)c(F)c2F)CC1 (stereo not shown)		rat, placenta	10 ng/mL in perfusate, low dose, mixture of 21 LCMs		median placental accumulation	2.31 ng/g
COc1ccc2c(c1)CN(C(=O)CCN1CCC(Cc3ccccc3)CC1)CC[S@@+]2[O-]	telemetry	conscious male beagle dogs	intravenous, 4 mg/kg, 2 h		QTc interval	250 ± 14 ms
C[C@@H](N)C1CCN(S(=O)(=O)c2cccc3cnccc23)CC1	refers to: Bradycardia	healthy volunteers	150 mg, fasted		TEAE incidence	0%
Cc1ccc([C@@H]2O[C@H](CO)[C@@H](O)[C@H](O)[C@H]2O)cc1Cc1ccc(-c2ccc(F)cc2)s1	refers to: inorganic phosphorus	Japanese type 2 diabetes patients	200 mg, day 18, 24 h urine collection	relative to: baseline	urinary phosphate excretion change	57.9 mg
